Measurements from different studies.
Protocols differ between the studies behind these lines. ± gives the spread as reported.
Cell line: HCT-116

COc1ccc(NC(=O)N/N=C2\CC3(CCN(C)CC3)Oc3ccccc32)cc1 gave an IC50 of 1.15 ± 0.05 µM (48 h).
Cc1c(C)c(C)[c-](C)c1C.O=[N+]([O-])c1ccnc(-c2[c-]cccc2)c1.[Cl-].[Ir+3] gave an IC50 of 27.5 ± 0.9 µM (SRB; 24 h, 72 h recovery).
CSc1nc(Nc2cccc(/C(C)=N/NC(=O)c3cccc(Cl)c3)c2)c(C#N)c(-c2ccccc2)n1 gave an IC50 of 9.25 µM (cell growth or viability, MTT; 48 h).
With COc1cc2c(Oc3ccc(Nc4nn(C)cc4C(=O)NC4CCCCC4)cc3F)ccnc2cc1OCCCCCCC(=O)NO the IC50 was 0.07 µM (cell growth or viability, MTT).
With CSc1nc(Nc2ccc(/C(C)=N/NC(=O)c3ccccc3Cl)cc2)c(C#N)c(-c2ccccc2)n1 the IC50 was 10.7 µM (cell growth or viability, MTT; 48 h).
The IC50 of CN1CCN(c2ccc(Nc3ncc(F)c(-c4cn(C5CCCCC5)nn4)n3)cc2)CC1 is reported as 7.89 µM (cell growth or viability, SRB; 72 h).
Cc1cc(C)c(S(=O)(=O)N(CC(=O)O)c2ccc(Nc3ccnc(N4CCCC4)n3)cc2)c(C)c1 has an IC50 of 8.99 µM (cell growth or viability, MTT; 72 h).
With COCCSc1nc(N)c2c(F)c(C#N)c(F)c(Cl)c2n1 the IC50 was 6.94 µM (cell growth or viability, MTT; 96 h).
O=C(NCCC#Cc1cc(Nc2nccc(-c3ccn([C@H](CO)c4ccc(Cl)c(F)c4)c(=O)c3)n2)ccn1)OC1CC/C=C/CCC1 (some centres unmarked) has an IC50 of 1 µM (cell growth or viability, resazurin; 96 h).
For CC(C)CC(NC(=O)CCn1nc(Cc2ccccc2)c2ccccc2c1=O)C(=O)NN (centres unmarked), the IC50 was 1.58 µM (cell growth or viability, MTT; 48 h).
O=C1c2ccccc2C2C(=O)c3ccccc3OC12 (centres unmarked) gave an IC50 of 25.1 µg/mL (cell growth or viability, resazurin; 96 h).
With O=C(NCCCCCNc1n[n+]([O-])c2ccccc2[n+]1[O-])C(F)(F)F the IC50 was 65.4 ± 14.6 µM (cytotoxicity, MTT; 24 h, normoxia).
With CC12CCCC(n3cc(C(=O)N4CCC(N)CC4)nn3)(C1)C1CC(C)(C)C1CC2 (centres unmarked) the IC50 was 14.3 µM (cell growth or viability, CCK-8; 72 h).
O=C(NCCNc1n[n+]([O-])c2ccccc2[n+]1[O-])C(F)(F)F has an IC50 of 33.8 µM (cytotoxicity, MTT; 24 h, hypoxia).
CNCCNC(=O)c1cn(C23CCCC(C)(CCC4C2CC4(C)C)C3)nn1 (centres unmarked) has an IC50 of 14.5 µM (cell growth or viability, CCK-8; 72 h).
For C/C(=N\N=C1/NC(=O)CS1)c1c(O)c2ccccc2oc1=O, the IC50 was 9.5 µM (cell growth or viability, MTT; 48 h).
The IC50 of Cc1cc(C)c(N[C](NCc2cccc(N[C](Nc3c(C(C)C)cccc3C(C)C)=[Pt-]([Cl])([Cl])[C]#[N+]c3c(C(C)C)cccc3C(C)C)c2)=[Au][Cl])c(C)c1 is reported as > 100 µM (cell growth or viability).
CC(C)c1ccc2c(c1)CCC1[C@](C)(C(=O)OCCSc3nc(O)c(C#N)c(-c4ccc(O)cc4)n3)CCC[C@]21C (some centres unmarked) gave an IC50 of 9.53 to 19.4 µM (cell growth or viability, MTT; 48 h).
The IC50 of CC(C)c1cccc(C(C)C)c1N=[C](NCc1cccc(N)c1)[AuH][Cl] is reported as 4.4 µM (cell growth or viability).
For CCN1CCC2(CC1)C/C(=N\NC(=O)Nc1ccc(OC)cc1)c1ccccc1O2, the IC50 was 19.7 ± 0.84 µM (48 h).
CCC1=C(CC)C2=[N+]3C1=Cc1c(CC)c(CC)c4[n]1[Ir-3]31([n+]3ccccc3)([n+]3ccccc3)[n]3c(c(CC)c(CC)c3=CC3=[N+]1C(=C4)C(CC)=C3CC)=C2.Cl gave an IC50 of 0.25 µM (cell growth or viability, MTT; 72 h).
The IC50 of O=C1C=C(c2coc3cc(O)cc(O)c3c2=O)C(=O)C([N+](=O)[O-])=C1O is reported as 57.2 µM (cell growth or viability, MTT; 72 h).
O=c1[nH]c2ccccc2nc1/C=C/c1ccccc1Br has an IC50 of 12.3 µM (cell growth or viability, MTT; 72 h).
CC(C)(C)N=[C](NCc1cccc(N)c1)[AuH][Cl] gave an IC50 of 4.4 µM (cell growth or viability).
C#CCN(CC(=O)O[C@H]1[C@H](C)O[C@@H](O[C@H]2[C@H](N(C)C)[C@@H](O)[C@H](O[C@H]3[C@@H](CC=O)C[C@@H](C)[C@@H](O[C@H]4CC[C@H](N(C)C)[C@@H](C)O4)/C=C/C=C/C[C@@H](C)OC(=O)C[C@@H](O)[C@@H]3OC)O[C@@H]2C)C[C@@]1(C)O)C(=O)c1ccc(C(F)(F)F)cc1 gave an IC50 of 1.03 µM (cell growth or viability, CCK-8; 72 h).
With CSc1nc(Nc2cccc(/C(C)=N/NC(=O)c3ccccc3Cl)c2)c(C#N)c(-c2ccccc2)n1 the IC50 was 8.65 µM (cell growth or viability, MTT; 48 h).
The IC50 of CO[C@@H]1[C@@H](O[C@@H]2O[C@H](C)[C@@H](O[C@H]3C[C@@](C)(O)[C@@H](OC(=O)Nc4ccc(C)cc4)[C@H](C)O3)[C@H](N(C)C)[C@H]2O)[C@@H](CC=O)C[C@@H](C)[C@@H](O[C@H]2CC[C@H](N(C)C)[C@@H](C)O2)/C=C/C=C/C[C@@H](C)OC(=O)C[C@H]1O is reported as 22 µM (cell growth or viability, CCK-8; 72 h).
For OC[C@H]1[C@@H](O)[C@@H](O)CN1Cc1ccc(Br)cc1, the IC50 was > 200 µM (cell growth or viability, MTS; 72 h).
For [Cl][Au]1[P](c2ccccc2)(c2ccccc2)C[P](c2ccccc2)(c2ccccc2)[Au]([Cl])[P](c2ccccc2)(c2ccccc2)C[P]1(c1ccccc1)c1ccccc1, the IC50 was 1.3 µM (cell growth or viability, trypan blue; 48 h).
With COCCOCCSc1nc(N)c2c(F)c(C#N)c(F)c(Cl)c2n1 the IC50 was 5.68 µM (cell growth or viability, MTT; 96 h).
With COc1ccc(-c2c(C#N)c(N)n(-c3nnc(NC(=O)c4ccccc4)s3)c(=O)c2C#N)cc1 the IC50 was 29.2 µM (cell growth or viability, MTT; 48 h).
Cc1ccc(-c2nc(SCCOC(=O)[C@]3(C)CCC[C@]4(C)c5ccc(C(C)C)cc5CCC34)nc(O)c2C#N)cc1 (some centres unmarked) has an IC50 of 9.53 to 19.4 µM (cell growth or viability, MTT; 48 h).
The IC50 of CSC(=S)N/N=C(\C)c1ccc(S(=O)(=O)N2CCC(C)CC2)cc1 is reported as 5.58 µM (cell growth or viability, MTT).
With O=C(CCc1nc2cc(Cl)ccc2[nH]c1=O)Nc1ccc([N+](=O)[O-])cc1 the IC50 was 19.4 µM (cell growth or viability, MTT).
For C=CC(=O)N1CCCC(n2c(=O)c3ncccc3n(Cc3ccc(Oc4ccccc4)cc3)c2=O)C1 (centres unmarked), the IC50 was > 10 µM (cell growth or viability, MTT).
C/C(=N\N=c1\sc(/N=N/c2ccc([N+](=O)[O-])cc2[N+](=O)[O-])c(C)n1C)c1c(O)c2ccccc2oc1=O gave an IC50 of 2.7 µM (cell growth or viability, LDH; 48 h).
Cc1cc(C)c([N+]#[C][Pd-2]([Cl])([Cl])[C]#[N+]c2c(C)cc(C)cc2C)c(C)c1 gave an IC50 of > 100 µM (cell growth or viability).
C=CCNC(=O)CNC(=O)CCn1nc(Cc2ccccc2)c2ccccc2c1=O has an IC50 of 7.98 µM (cell growth or viability, MTT; 48 h).
CO[C@@H]1[C@@H](O[C@@H]2O[C@H](C)[C@@H](O[C@H]3C[C@@](C)(O)[C@@H](OC(=O)Nc4ccc(C(F)(F)F)cc4)[C@H](C)O3)[C@H](N(C)C)[C@H]2O)[C@@H](CC=O)C[C@@H](C)[C@@H](O[C@H]2CC[C@H](N(C)C)[C@@H](C)O2)/C=C/C=C/C[C@@H](C)OC(=O)C[C@H]1O has an IC50 of 5.79 µM (cell growth or viability, CCK-8; 72 h).
CN1CCN(c2ccc(Nc3nccc(-c4cn(C5CCCCC5)nn4)n3)cc2)CC1 has an IC50 of 7.96 µM (cell growth or viability, SRB; 72 h).
O=C(NNc1nc(-c2ccccc2)cs1)c1cc2ccc(O)cc2oc1=O gave an IC50 of 3.5 µM (cell growth or viability, SRB; 72 h).
The IC50 of C#CCN(CC(=O)O[C@H]1[C@H](C)O[C@@H](O[C@H]2[C@H](N(C)C)[C@@H](O)[C@H](O[C@H]3[C@@H](CC=O)C[C@@H](C)[C@@H](O[C@H]4CC[C@H](N(C)C)[C@@H](C)O4)/C=C/C=C/C[C@@H](C)OC(=O)C[C@@H](O)[C@@H]3OC)O[C@@H]2C)C[C@@]1(C)O)Cc1ccc(C(F)(F)F)cc1 is reported as 4.39 µM (cell growth or viability, CCK-8; 72 h).
The IC50 of O=C(CCc1nc2cc(Cl)ccc2[nH]c1=O)Nc1ccc(Cl)cc1 is reported as 62.2 µM (cell growth or viability, MTT).
CC(C)c1cccc(C(C)C)c1[N+]#[C][Pt-]([Cl])([Cl])=[C](Nc1cccc(CN[C](NC(C)(C)C)=[Au][Cl])c1)Nc1c(C(C)C)cccc1C(C)C has an IC50 of > 100 µM (cell growth or viability).
Cc1c(C(=O)NNC(=S)Nc2ccc(Cl)cc2)nnn1Cc1nc2ccccc2[nH]1 gave an IC50 of 8.34 ± 0.6 µM (48 h).
With CC(=NN=c1sc(C(=O)c2ccccc2)nn1-c1ccccc1)c1ccc(S(=O)(=O)N2CCC(C)CC2)cc1 the IC50 was 3.66 µM (cell growth or viability, MTT).
COC(=O)[C@H](CC(C)C)NC(=O)CNC(=O)COc1ccc2c(C)cc(=O)oc2c1 gave an IC50 of 61 µM (cell growth or viability, MTT).
The IC50 of CC(=O)N[C@H]1C(n2cc([C@@](C)(O)c3cccc(F)c3)nn2)O[C@H](COCc2ccccc2)[C@H](OCc2ccccc2)[C@@H]1OCc1ccccc1 (some centres unmarked) is reported as > 100 µM (cell growth or viability, MTS; 72 h).
For COc1cc2c(cc1-c1coc3c(CC=C(C)C)c(OC)c(OC)cc3c1=O)OCO2, the IC50 was 23.2 µM (cell growth or viability, MTT; 72 h).
For Cc1cc(C)c([N+]#[C][Pt-]([Cl])([Cl])=[C](Nc2ccc(CN[C](NC(C)(C)C)=[Au][Cl])cc2)Nc2c(C)cc(C)cc2C)c(C)c1, the IC50 was 0.5 µM (cell growth or viability).
O=C(NCCCCCCCNc1n[n+]([O-])c2ccccc2[n+]1[O-])C(F)(F)F gave an IC50 of 106 ± 2 µM (cytotoxicity, MTT; 24 h, normoxia).
O=C(Cn1c(=O)c(Cc2ccccc2)nc2ccccc21)NN1C(=O)c2ccccc2C1=O has an IC50 of 0.063 µM (cell growth or viability, MTT; 72 h).
With CSc1nc(Nc2ccc(C(=O)N/N=C/c3c(Cl)cccc3Cl)cc2)c(C#N)c(-c2ccccc2)n1 the IC50 was 7.14 µM (cell growth or viability, MTT; 48 h).
For Cc1cc(N2CCN(C(=O)CN3CCN(c4ccccc4)CC3)CC2)n2ncnc2n1, the IC50 was 7.03 µM (cell growth or viability, MTT).
N=C(N)NCCC[C@H](N)C(=O)N[C@@H](Cc1ccc(O)cc1)C(=O)N[C@@H](Cc1c[nH]c2ccccc12)C(=O)N[C@@H](Cc1ccc(O)cc1)C(=O)NCC(N)=O has an IC50 of > 100 µM.
N#Cc1c(F)c(F)c2nc(SCc3ccc4ccccc4c3)nc(N)c2c1F gave an IC50 of 3.84 µM (cell growth or viability, MTT; 96 h).

Repeated from above:
With COc1cc2c(Oc3ccc(Nc4nn(C)cc4C(=O)NC4CCCCC4)cc3F)ccnc2cc1OCCCCCCC(=O)NO the IC50 was 0.07 µM (cell growth or viability, MTT).
O=c1[nH]c2ccccc2nc1/C=C/c1ccccc1Br has an IC50 of 12.3 µM (cell growth or viability, MTT; 72 h).
O=C1c2ccccc2C2C(=O)c3ccccc3OC12 (centres unmarked) gave an IC50 of 25.1 µg/mL (cell growth or viability, resazurin; 96 h).
With COCCSc1nc(N)c2c(F)c(C#N)c(F)c(Cl)c2n1 the IC50 was 6.94 µM (cell growth or viability, MTT; 96 h).
For OC[C@H]1[C@@H](O)[C@@H](O)CN1Cc1ccc(Br)cc1, the IC50 was > 200 µM (cell growth or viability, MTS; 72 h).
N=C(N)NCCC[C@H](N)C(=O)N[C@@H](Cc1ccc(O)cc1)C(=O)N[C@@H](Cc1c[nH]c2ccccc12)C(=O)N[C@@H](Cc1ccc(O)cc1)C(=O)NCC(N)=O has an IC50 of > 100 µM.
For [Cl][Au]1[P](c2ccccc2)(c2ccccc2)C[P](c2ccccc2)(c2ccccc2)[Au]([Cl])[P](c2ccccc2)(c2ccccc2)C[P]1(c1ccccc1)c1ccccc1, the IC50 was 1.3 µM (cell growth or viability, trypan blue; 48 h).
For CCN1CCC2(CC1)C/C(=N\NC(=O)Nc1ccc(OC)cc1)c1ccccc1O2, the IC50 was 19.7 ± 0.84 µM (48 h).
CNCCNC(=O)c1cn(C23CCCC(C)(CCC4C2CC4(C)C)C3)nn1 (centres unmarked) has an IC50 of 14.5 µM (cell growth or viability, CCK-8; 72 h).
